Measured values from different studies.
Each numbered part is a random draw from the data of one study; scales do not carry over between parts.

Block 1 — method: aptamer microarray, sandwich; form: DNA with 2'F-ANA; matrix: in vitro; tested at: 200 nM; added: Cy3 exosite-II aptamer, 400 nM; reading: higher = stronger binding
Target: Prothrombin, mature alpha-thrombin (F2, Homo sapiens, UniProt P00734)
Notes: whole 15-mer aptamer, many near background
Strand | mean fluorescence intensity [a.u.]
GGTTGGTGTGGTTGG (2'F-ANA at 1 2 3 7 8 9 10 12 15) | 97.5
GGTTGGTGTGGTTGG (2'F-ANA at 2 4 6 7 8 9 13 14 15) | 82.3
GGTTGGTGTGGTTGG (2'F-ANA at 1 2 3 4 5 6 7 8 12) | 118
GGTTGGTGTGGTTGG (2'F-ANA at 2 5 6 7 8 9 11 12 15) | 125

Block 2 — method: RNA Bind-n-Seq; form: RNA; matrix: in vitro; tested at: 365 nM; baseline: no-protein control; reading: higher = stronger binding
Target: RNA binding protein fox-1 homolog 2, RRM domain, GST-SBP tag (RBFOX2, Homo sapiens, UniProt O43251-10, residues 100-194)
Notes: natural RNA segment, single round, ends assumed
Strand | RBNS enrichment (R)
GGGAGUUCUACAGUCCGACGAUCCCAAUACCCUAGAAGAAAACCCGAGGGACAGCAGAUUCCACAGGACACGAAGGCUGCCCCUGUAAGGUUUCAAUGCAUACAAUAAAAGAGCUUUAUCCCUAACUUCUGUUUGGAAUUCUCGGGUGCCAA | 2.61
GGGAGUUCUACAGUCCGACGAUCGGAGUCUAGCUCACAUAAAGAGAGUGUUAUAUAAAAAUCCGACAGCUGAACUAGGUUGCUCUUUUUUGGCAGGGAGUGGGGAUGAGAUUUGACACCAAUAUGGGCAAAAUUGGAAUUCUCGGGUGCCAA | 0.556
GGGAGUUCUACAGUCCGACGAUCGUUUUGCUGGCACGAAAGAAACUAGAUGGAAAUAUAUGUAAUUCUCUCAUAUUUAAAAACGUAAUCUCUUCUCUUAGAAGUAUAGAUCAUUUUGAAACUUAAUGUACUACUGGAAUUCUCGGGUGCCAA | 1.22

Block 3 — method: universal PBM; form: double-stranded DNA, one strand shown; matrix: in vitro; tested at: 600 nM; reading: higher = stronger binding
Target: Sal-like protein 4, full length isoform A (SALL4, Homo sapiens, UniProt Q9UJQ4, residues 1-1053)
UniProt Q9UJQ4, sequence (whole entry, looked up): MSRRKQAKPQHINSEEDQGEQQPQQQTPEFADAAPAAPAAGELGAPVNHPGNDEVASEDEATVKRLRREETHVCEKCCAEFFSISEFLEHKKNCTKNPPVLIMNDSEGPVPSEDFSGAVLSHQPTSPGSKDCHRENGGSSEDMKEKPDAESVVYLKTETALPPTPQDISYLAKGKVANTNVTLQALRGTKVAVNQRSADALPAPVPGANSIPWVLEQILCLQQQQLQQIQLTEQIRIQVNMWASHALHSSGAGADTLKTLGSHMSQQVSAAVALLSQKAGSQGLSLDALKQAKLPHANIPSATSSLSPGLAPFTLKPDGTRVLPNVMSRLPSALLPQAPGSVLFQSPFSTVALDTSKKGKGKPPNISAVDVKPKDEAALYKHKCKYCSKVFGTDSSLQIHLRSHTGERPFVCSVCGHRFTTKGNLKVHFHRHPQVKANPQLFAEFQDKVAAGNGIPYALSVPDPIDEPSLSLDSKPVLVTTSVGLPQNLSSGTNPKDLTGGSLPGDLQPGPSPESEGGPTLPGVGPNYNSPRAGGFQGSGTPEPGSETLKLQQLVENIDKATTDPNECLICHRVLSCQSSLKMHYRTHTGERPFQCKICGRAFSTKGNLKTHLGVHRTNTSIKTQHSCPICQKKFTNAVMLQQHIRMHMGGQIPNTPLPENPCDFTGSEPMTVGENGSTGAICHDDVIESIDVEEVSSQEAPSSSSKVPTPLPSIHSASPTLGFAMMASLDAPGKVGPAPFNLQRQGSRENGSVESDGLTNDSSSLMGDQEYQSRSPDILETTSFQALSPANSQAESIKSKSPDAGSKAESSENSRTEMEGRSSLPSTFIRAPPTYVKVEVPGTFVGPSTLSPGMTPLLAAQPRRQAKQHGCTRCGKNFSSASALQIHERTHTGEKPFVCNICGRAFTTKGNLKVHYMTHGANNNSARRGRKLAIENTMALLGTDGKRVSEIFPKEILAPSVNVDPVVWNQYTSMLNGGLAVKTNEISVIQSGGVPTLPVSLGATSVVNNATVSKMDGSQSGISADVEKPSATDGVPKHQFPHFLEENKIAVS
Notes: 8-mer, flanks averaged, mean of replicates
Strand | E-score
AAGTGGGC | -0.0661
GCCTTCGA | -0.162
CTAAAGAC | 0.0724

Other studies, line by line
Molecule | target | assay | test system | conditions | scale | quantity | value
PhoQ, residues 284 288 289 292 302 303 AGCYAI | PhoP, residues 12 14 15 18 19 TTLRV (Escherichia coli, UniProt P23836) | Sort-seq, refers to: YFP reporter | E. coli | PhoQ-PhoP variant library, added: 10 µM Mg2+ | baseline: high Mg2+ state, higher = stronger signaling | fold induction | 3.29

Some of these lines once more (block 1):
Strand | mean fluorescence intensity [a.u.]
GGTTGGTGTGGTTGG (2'F-ANA at 2 4 6 7 8 9 13 14 15) | 82.3
GGTTGGTGTGGTTGG (2'F-ANA at 1 2 3 4 5 6 7 8 12) | 118
